Measured values pooled from the literature.
Protocols differ between the studies behind these lines. “And” joins repeats or separate records; there may be more than shown. Numbers after ± are the reported error.
SLC6A4: Sodium-dependent serotonin transporter (SLC6A4, Homo sapiens, UniProt P31645)
Chain of UniProt P31645 (whole entry, looked up): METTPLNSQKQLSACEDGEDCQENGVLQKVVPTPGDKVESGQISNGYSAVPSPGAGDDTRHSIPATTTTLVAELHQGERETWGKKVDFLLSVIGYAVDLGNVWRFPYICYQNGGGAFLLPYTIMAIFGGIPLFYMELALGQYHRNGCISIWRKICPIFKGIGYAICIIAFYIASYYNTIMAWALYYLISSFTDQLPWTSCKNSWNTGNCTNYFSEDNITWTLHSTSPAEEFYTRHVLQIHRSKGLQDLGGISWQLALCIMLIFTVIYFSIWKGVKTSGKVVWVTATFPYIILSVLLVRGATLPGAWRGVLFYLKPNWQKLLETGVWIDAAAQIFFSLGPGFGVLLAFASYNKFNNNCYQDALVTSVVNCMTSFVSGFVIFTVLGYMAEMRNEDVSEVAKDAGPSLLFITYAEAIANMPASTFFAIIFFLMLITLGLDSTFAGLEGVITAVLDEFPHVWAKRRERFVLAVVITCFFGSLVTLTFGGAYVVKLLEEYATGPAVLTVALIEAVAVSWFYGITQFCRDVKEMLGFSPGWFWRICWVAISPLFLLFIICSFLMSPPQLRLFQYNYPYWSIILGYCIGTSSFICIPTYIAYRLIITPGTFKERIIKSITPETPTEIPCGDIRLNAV
HTR1B: 5-hydroxytryptamine receptor 1B (HTR1B, Homo sapiens, UniProt P28222)
Chain of UniProt P28222 (whole entry, looked up): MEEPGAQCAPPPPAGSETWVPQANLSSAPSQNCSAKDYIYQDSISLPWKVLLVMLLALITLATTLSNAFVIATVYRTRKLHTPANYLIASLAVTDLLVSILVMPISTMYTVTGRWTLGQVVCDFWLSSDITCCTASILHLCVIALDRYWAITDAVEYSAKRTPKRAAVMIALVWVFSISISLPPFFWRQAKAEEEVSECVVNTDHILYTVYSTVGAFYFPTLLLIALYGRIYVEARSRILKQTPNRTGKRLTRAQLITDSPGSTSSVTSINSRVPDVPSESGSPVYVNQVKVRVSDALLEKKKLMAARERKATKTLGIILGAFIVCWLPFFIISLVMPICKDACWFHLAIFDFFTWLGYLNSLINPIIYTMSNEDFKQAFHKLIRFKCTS
SLC22A12: Solute carrier family 22 member 12 (SLC22A12, Homo sapiens, UniProt Q96S37)
Chain of UniProt Q96S37 (whole entry, looked up): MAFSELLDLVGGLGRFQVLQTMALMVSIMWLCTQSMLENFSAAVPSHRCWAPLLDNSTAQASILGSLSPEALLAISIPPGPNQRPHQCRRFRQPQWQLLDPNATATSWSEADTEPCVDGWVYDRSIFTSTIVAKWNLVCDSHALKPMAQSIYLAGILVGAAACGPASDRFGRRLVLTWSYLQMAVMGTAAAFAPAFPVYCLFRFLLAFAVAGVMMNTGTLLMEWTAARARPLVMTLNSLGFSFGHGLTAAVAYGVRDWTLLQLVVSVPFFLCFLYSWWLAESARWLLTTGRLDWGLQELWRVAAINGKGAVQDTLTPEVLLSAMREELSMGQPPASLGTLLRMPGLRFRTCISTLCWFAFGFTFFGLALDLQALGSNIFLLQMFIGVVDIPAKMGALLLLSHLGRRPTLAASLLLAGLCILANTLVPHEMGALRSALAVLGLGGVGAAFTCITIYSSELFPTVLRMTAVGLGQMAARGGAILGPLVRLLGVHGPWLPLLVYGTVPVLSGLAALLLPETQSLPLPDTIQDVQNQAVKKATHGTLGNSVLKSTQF
STK38: Serine/threonine-protein kinase 38 (STK38, Homo sapiens, UniProt Q15208)
Chain of UniProt P10721 (whole entry, unmodified, looked up): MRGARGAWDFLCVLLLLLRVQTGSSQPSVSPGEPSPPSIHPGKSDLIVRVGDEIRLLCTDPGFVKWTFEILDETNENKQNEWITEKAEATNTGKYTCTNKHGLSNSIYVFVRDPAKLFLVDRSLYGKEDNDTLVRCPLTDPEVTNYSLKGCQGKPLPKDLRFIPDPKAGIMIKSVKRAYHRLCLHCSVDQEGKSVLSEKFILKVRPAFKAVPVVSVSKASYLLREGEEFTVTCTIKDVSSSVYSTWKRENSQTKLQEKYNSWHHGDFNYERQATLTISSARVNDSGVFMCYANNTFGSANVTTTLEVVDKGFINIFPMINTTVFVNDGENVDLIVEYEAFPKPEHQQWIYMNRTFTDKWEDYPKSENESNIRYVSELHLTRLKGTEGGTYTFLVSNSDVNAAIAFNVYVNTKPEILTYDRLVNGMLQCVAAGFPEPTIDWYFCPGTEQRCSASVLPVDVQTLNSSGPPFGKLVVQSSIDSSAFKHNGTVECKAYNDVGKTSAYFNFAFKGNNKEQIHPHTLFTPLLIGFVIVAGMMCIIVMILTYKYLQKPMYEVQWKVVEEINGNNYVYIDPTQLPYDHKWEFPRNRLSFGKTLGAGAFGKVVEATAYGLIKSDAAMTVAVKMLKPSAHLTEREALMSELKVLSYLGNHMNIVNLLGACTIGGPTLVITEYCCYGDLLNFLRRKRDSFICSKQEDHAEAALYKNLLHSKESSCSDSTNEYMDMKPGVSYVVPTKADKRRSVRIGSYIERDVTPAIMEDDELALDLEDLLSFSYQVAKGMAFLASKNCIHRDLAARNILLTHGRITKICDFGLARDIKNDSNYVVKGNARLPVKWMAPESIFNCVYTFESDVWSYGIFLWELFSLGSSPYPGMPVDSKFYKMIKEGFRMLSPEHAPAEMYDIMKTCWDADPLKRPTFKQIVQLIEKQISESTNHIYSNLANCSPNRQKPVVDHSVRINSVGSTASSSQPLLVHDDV
Chain of UniProt Q15208 (whole entry, looked up): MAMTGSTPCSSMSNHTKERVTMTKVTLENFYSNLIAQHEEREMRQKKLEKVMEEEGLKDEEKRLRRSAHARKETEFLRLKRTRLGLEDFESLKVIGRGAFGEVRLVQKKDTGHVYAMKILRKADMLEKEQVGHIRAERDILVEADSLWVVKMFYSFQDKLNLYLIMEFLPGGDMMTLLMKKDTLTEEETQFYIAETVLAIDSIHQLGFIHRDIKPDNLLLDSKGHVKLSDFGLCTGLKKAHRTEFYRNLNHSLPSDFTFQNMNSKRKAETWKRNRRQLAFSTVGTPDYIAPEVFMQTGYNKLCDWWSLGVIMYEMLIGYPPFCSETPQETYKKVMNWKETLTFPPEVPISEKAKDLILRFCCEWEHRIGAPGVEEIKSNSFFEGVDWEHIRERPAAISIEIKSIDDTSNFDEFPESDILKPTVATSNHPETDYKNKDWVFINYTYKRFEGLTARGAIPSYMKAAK
Chain of UniProt Q9Y233 (whole entry, looked up): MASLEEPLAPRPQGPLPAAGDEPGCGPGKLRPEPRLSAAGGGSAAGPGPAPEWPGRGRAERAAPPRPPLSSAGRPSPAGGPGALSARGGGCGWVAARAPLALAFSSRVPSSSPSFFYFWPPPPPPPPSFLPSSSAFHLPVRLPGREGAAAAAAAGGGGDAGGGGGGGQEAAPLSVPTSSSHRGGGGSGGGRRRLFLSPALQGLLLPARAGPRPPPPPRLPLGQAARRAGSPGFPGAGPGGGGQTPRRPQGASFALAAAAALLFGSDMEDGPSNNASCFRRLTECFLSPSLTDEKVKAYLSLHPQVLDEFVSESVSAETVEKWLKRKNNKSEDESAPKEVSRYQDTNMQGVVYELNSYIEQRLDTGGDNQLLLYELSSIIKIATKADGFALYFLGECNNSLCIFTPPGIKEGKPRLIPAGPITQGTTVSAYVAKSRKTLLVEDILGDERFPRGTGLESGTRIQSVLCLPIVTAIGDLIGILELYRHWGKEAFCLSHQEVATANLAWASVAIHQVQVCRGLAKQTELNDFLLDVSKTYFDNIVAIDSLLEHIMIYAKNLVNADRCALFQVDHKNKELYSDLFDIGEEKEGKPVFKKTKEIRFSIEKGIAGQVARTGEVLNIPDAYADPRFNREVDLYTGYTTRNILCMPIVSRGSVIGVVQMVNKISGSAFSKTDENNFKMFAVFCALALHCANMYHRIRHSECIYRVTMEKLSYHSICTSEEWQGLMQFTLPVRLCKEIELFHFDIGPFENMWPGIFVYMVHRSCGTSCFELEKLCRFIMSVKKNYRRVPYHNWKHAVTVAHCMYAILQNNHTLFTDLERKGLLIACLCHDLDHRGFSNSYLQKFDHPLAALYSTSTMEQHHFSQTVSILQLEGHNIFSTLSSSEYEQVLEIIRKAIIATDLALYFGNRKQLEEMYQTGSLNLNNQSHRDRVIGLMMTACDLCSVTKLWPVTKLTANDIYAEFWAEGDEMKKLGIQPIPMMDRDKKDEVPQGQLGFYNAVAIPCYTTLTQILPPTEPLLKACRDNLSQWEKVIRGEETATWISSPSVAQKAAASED
Chain of UniProt Q9Y4K4 (whole entry, looked up): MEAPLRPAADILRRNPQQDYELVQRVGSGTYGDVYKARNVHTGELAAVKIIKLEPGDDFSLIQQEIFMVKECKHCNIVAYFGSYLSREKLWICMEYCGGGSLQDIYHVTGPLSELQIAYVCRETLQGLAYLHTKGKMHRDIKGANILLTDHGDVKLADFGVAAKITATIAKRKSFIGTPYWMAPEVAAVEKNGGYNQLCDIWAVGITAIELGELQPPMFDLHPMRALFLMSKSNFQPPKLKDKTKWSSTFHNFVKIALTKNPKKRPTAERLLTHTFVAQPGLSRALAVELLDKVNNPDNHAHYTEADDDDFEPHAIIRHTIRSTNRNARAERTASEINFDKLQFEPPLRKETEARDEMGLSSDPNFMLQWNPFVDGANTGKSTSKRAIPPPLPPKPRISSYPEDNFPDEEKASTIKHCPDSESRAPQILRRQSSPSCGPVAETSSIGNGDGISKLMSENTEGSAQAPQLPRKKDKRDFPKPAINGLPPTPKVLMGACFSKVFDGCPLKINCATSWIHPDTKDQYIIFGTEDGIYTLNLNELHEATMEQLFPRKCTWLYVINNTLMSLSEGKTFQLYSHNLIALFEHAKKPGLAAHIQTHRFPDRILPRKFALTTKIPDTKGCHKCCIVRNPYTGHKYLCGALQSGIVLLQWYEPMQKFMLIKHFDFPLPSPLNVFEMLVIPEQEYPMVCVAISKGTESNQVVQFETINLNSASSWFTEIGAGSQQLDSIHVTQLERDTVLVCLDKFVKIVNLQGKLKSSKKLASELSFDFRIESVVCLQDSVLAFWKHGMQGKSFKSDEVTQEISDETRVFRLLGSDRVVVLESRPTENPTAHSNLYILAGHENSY

Nc1nc2c(ncn2[C@H]2C[C@H](O)[C@@H](COP(=O)(O)O)O2)c(=O)[nH]1 — z-scored log2 fold change (binding, equilibrium dialysis LC-MS; 5 µM, thermostabilized A2AR-BRIL construct; reference: no-protein control, direction not given): 0.125
OCCCN1CC[C@@H]2C[C@H]1c1cc(-c3ccc(C(F)(F)F)cc3)ccc12 — inhibition (SLC6A4; radioligand binding, PDSP competition binding; 10 µM): < 50%
CN(C(=O)n1cnc(-c2ccc[n+]([O-])c2)c1)C1CCCCC1 — inhibition (SLC6A4; binding; 10 µM): 10.4%
c1cncc(OC[C@@H]2CN(CCN3CCc4ccccc43)CCO2)c1 — inhibition (HTR1B; radioligand binding; concentration not given, added: [3H]5-CT): 33.7%
O=C(O)/C=C/c1nccc2c3ccccc3n(Cc3ccc(Br)c4ccccc34)c12 — inhibition (SLC22A12; uric acid uptake, inhibitor; HEK293 transiently expressing URAT1; 20 µM, added: [14C]uric acid): 100%
Cc1nn(-c2nc3ccccc3s2)c(O)c1C(c1ccccc1C(=O)O)c1c(C)nn(-c2nc3ccccc3s2)c1O — inhibition (Cyclic GMP-AMP synthase, catalytic domain; with DNA (CGAS, Homo sapiens, UniProt Q8N884); cGAS phase separation, inhibitor; 10 µM): 91.5%
CCN1CCN(Cc2ccc(NC(=O)c3ccc(C)c(Oc4ccnc5[nH]ccc45)c3)cc2C(F)(F)F)CC1 — inhibition (Acylglycerol kinase, mitochondrial (Homo sapiens, UniProt Q53H12); KiNativ; Huh-7 live cells; 1 µM): < 35%
O=C1c2ccccc2CCCN1CCCCN1CCN(c2ccccn2)CC1 — inhibition (HTR1B; radioligand binding; concentration not given, added: [3H]5-CT): 45.8%
CCc1nn(C)c2nc(-c3ccc(C(=O)O)cc3)nc(NCc3ccc(F)cc3)c12 — inhibition (PDE10A (Homo sapiens, UniProt Q9Y233); enzyme activity; 10 µM, added: [3H]cAMP): 32.2%
[2H]c1cc(C)c(NC(=O)c2cnc(Nc3cc(N4CCCCC4)nc(C)n3)s2)c(Cl)c1 — inhibition (CSF1R (Homo sapiens, UniProt P07333); 0.0001 µM): > 50%
Cc1ccc(NC(=S)N/N=C/c2cn(S(=O)(=O)c3ccc(C)cc3)c3ccccc23)cc1 — inhibition (mushroom tyrosinase; enzyme activity, inhibitor; 0.5 mM, added: L-DOPA substrate): 91.7%
O=C(NS(=O)(=O)C1CC1)c1cc2ccccc2n1Cc1ccc(C2CC2)c2ccccc12 — inhibition (SLC22A12; uric acid uptake, inhibitor; HEK293 transiently expressing URAT1; 20 µM, added: [14C]uric acid): 83.5% and 119%
COc1cc(C(=O)NS(=O)(=O)c2ccccc2C)ccc1Cc1cn(C)c2ccc(NC(=O)OC3CCCC3)cc12 — inhibition (Volume-regulated anion channel subunit LRRC8C, part LRRC8A IL1 chimera (LRRC8C, Homo sapiens, UniProt Q8TDW0, L105R); ion current, inhibitor, whole-cell patch clamp; HCT LRRC8-/- cells; 30 µM, +100 mV): 89.6% and 96.1% and 88.2% and 91.7% and 94% and 84.9%
Cc1cc(NC(=O)CCC(=O)O)nn1C — Kd (Ubiquitin carboxyl-terminal hydrolase 39, ZnF-UBD domain (Homo sapiens, UniProt Q53GS9)): > 1000 µM
Cc1ccnc(C)c1OC[C@H]1CN(CCN2CCc3ccccc32)CCO1 — inhibition (HTR1B; radioligand binding; concentration not given, added: [3H]5-CT): -7.6%
CC1CNCCN1S(=O)(=O)c1cccc2cnccc12 (stereo not drawn) — inhibition (ATP-sensitive inward rectifier potassium channel 11 (Homo sapiens, UniProt Q14654); channel activity, inside-out patch clamp; HEK293 expressing Kir6.2 without SUR1; concentration not given, 10 min; reference: control): 19 ± 8%
COc1ccc2c(c1)C(=O)N(CCCN1CCN(c3ccccc3OC)CC1)C2 — inhibition (HTR1B; radioligand binding; concentration not given, added: [3H]5-CT): 72.3%
Cc1cc(-c2ccnc3[nH]cc(F)c23)cc(F)c1[C@@]1(O)[C@H](C)CN(C(=O)CN)C[C@@H]1C — inhibition (STK38; ATP probe binding, KiNativ, item: Lys2 site; HEK293T cell lysate; 1 µM): 11.9%
Cc1ccc(S(=O)(=O)n2cc(/C=N/NC(=S)Nc3ccc(Cl)cc3)c3ccccc32)cc1 — inhibition (mushroom tyrosinase; enzyme activity, inhibitor; 0.5 mM, added: L-DOPA substrate): 92.9%
O=C(OC[C@H]1O[C@@H](OC(=O)c2cc(O)c(O)c(O)c2)[C@H](OC(=O)c2cc(O)c(O)c(O)c2)[C@@H](OC(=O)c2cc(O)c(O)c(O)c2)[C@@H]1OC(=O)c1cc(O)c(O)c(O)c1)c1cc(O)c(O)c(O)c1 — inhibition (PDIA3 (Homo sapiens, UniProt P30101); di-eosin-GSSG reductase activity; 20 µM, 15 min): inhibited
Cc1cc(-c2ccnc3[nH]cc(F)c23)cc(F)c1[C@@]1(O)[C@H](C)CN(C2CCS(=O)(=O)CC2)C[C@@H]1C — inhibition (STK38; ATP probe binding, KiNativ, item: Lys2 site; HEK293T cell lysate; 10 µM): 25.6%
COc1cc2c(cc1OC)C(=O)N(CCCCN1CCN(c3ccccc3OC)CC1)C2 — inhibition (HTR1B; radioligand binding; concentration not given, added: [3H]5-CT): 89.9%
C#Cc1cc(-c2cc(Nc3nc(N[C@@H](C)c4ccc(F)cn4)ncc3Cl)n[nH]2)ccc1C=O — inhibition (KIT (Homo sapiens, UniProt P10721, T670I); enzyme activity, inhibitor; 0.2 µM): 23.8%
CNC(=O)c1c(C)oc2cc(Oc3ncnc4cc(OC)c(OC)cc34)ccc12 — inhibition (NLRP3 inflammasome (mouse); mouse BMDM; 10 µM): 23.8%
c1ccc(OC[C@@H]2CN(CCN3CCc4ccccc43)CCO2)cc1 — inhibition (HTR1B; radioligand binding; concentration not given, added: [3H]5-CT): 43.5%
Cc1ccc(S(=O)(=O)n2cc(/C=N/NC(=S)Nc3ccccc3F)c3ccccc32)cc1 — inhibition (mushroom tyrosinase; enzyme activity, inhibitor; 0.5 mM, added: L-DOPA substrate): 91.5%
Cc1cc2c(cc1N1C(=O)c3cccc4c(CCCO)ccc(c34)C1=O)n(C)c(=O)n2C (racemic) — inhibition (Bromodomain-containing protein 3, BD1 (BRD3, Homo sapiens, UniProt Q15059); binding, BROMOscan binding; 1000 nM): 71%
CCN1/C(=C/C(C)=O)Sc2ccc(F)cc21 — inhibition (L-type calcium channel Benzothiazepine site, rat; radioligand binding; concentration not given): 2.76%
CN1CCN(c2cc(-c3ccncc3)c(-c3ccc4ccccc4c3)nn2)CC1 — inhibition (C5AR1 (Homo sapiens, UniProt P21730); antagonist, FLIPR; 10 µM): -5.2%
O=[N+]1C=CC(=C2C=CN([O-])C=C2)C=C1 — inhibition (DYRK1A (Homo sapiens, UniProt Q13627); enzyme activity; 10 µM): > 50%
Cc1ccc(S(=O)(=O)n2cc(/C=N/NC(=S)Nc3cccc(Cl)c3Cl)c3ccccc32)cc1 — inhibition (mushroom tyrosinase; enzyme activity, inhibitor; 0.5 mM, added: L-DOPA substrate): 92.2%
O=C(NO)c1ccc(CN2CCCCc3ccccc32)c(F)c1 — inhibition (SLC6A4; radioligand binding, radioligand displacement; 10 µM, mean of replicates): 16.8%
O=C(CN1CCO[C@@H](COc2ccccn2)C1)N1CCc2ccccc21 — inhibition (HTR1B; radioligand binding; concentration not given, added: [3H]5-CT): -14.1%
[2H]c1cc(C)c(NC(=O)c2cnc(Nc3cc(N4CCC(O)CC4)nc(C)n3)s2)c(Cl)c1 — inhibition (KIT (Homo sapiens, UniProt P10721); 0.001 µM): < 50%
CC(=O)c1nn(CC(=O)N2C[C@H](F)C[C@H]2C(=O)Nc2cccc(Br)n2)c2ccc(-c3cnc(C)nc3)cc12 — inhibition (tryptase (human); enzyme activity; human lung; 10 µM): 1.4%
CC[C@]12CCCN3CCc4c([nH]c5ccccc45)[C@]31N(Cc1cn(Cc3ccccc3)nn1)C(=O)C2 — inhibition (CNR2 (Homo sapiens, UniProt P34972); beta-arrestin recruitment, antagonist, PathHunter chemiluminescence; 20 µM, added: agonist at EC80): 60%
COc1cc(-c2cc(C(C)=O)n3ccccc23)cc(OC)c1Cn1ccnc1 — inhibition (Bromodomain-containing protein 3, BD2 (BRD3, Homo sapiens, UniProt Q15059); 1 µM): -3.94%
O=c1ccn([C@@H]2O[C@H](COP(=O)(O)O)[C@@H](O)[C@H]2O)c(=O)[nH]1 — z-scored log2 fold change (binding, equilibrium dialysis LC-MS; 5 µM, thermostabilized A2AR-BRIL construct; reference: no-protein control, direction not given): 0.256
NC(=O)[C@H]1CCCN1C(=O)CCC(=O)O — Kd (Ubiquitin carboxyl-terminal hydrolase 49, ZnF-UBD domain (USP49, Homo sapiens, UniProt Q70CQ1)): 399 µM
Cc1ccc(OC[C@H]2CN(CCN3CCc4ccccc43)CCO2)cn1 — inhibition (HTR1B; radioligand binding; concentration not given, added: [3H]5-CT): -0.6%
CCNC(=O)c1cnn(-c2ccc(-n3ccc(Cl)c(Cl)c3=O)cc2)c1C(F)(F)F — inhibition (TRPC6 (Homo sapiens, UniProt Q9Y210); ion current, inhibitor, whole-cell patch clamp; 10 µM, added: carbachol): inhibited
O=C(Nc1cccc2c(=O)cc(-c3nnn[nH]3)oc12)c1ccc(OCCCCc2ccccc2)cc1 — inhibition (Volume-regulated anion channel subunit LRRC8C, part LRRC8A IL1 chimera (LRRC8C, Homo sapiens, UniProt Q8TDW0, E6A); ion current, inhibitor, whole-cell patch clamp; HCT LRRC8-/- cells; 0.1 µM, -100 mV): 12.3% and 32.6% and 25.6% and 12.6% and 21.5%
FC(F)(F)c1ccc(CNc2ccc(Cc3c[nH]c4ncc(Cl)cc34)cn2)cn1 — inhibition (NLRP3 inflammasome (mouse); mouse BMDM; 10 µM): 63.2%
O=C(CCCN1CCC(O)(c2ccc(Cl)cc2)CC1)c1ccc(F)cc1 — inhibition (rat Sigma receptor; binding; 1 × 10 µM): 98.7%
CC[C@@H]1[C@H](F)C(=O)N[C@@H]1COc1nccc2cc(C(N)=O)c(OC)cc12 — inhibition (MAP4K5 (Homo sapiens, UniProt Q9Y4K4); ATP-site probe binding, ActivX profiling, item: KHS1; THP-1 cell lysate; 0.01 mM, Lys1 site): -0.852%

Excerpt of the above:
c1cncc(OC[C@@H]2CN(CCN3CCc4ccccc43)CCO2)c1 — inhibition (HTR1B; radioligand binding; concentration not given, added: [3H]5-CT): 33.7%
O=C(CN1CCO[C@@H](COc2ccccn2)C1)N1CCc2ccccc21 — inhibition (HTR1B; radioligand binding; concentration not given, added: [3H]5-CT): -14.1%
O=C(O)/C=C/c1nccc2c3ccccc3n(Cc3ccc(Br)c4ccccc34)c12 — inhibition (SLC22A12; uric acid uptake, inhibitor; HEK293 transiently expressing URAT1; 20 µM, added: [14C]uric acid): 100%
OCCCN1CC[C@@H]2C[C@H]1c1cc(-c3ccc(C(F)(F)F)cc3)ccc12 — inhibition (SLC6A4; radioligand binding, PDSP competition binding; 10 µM): < 50%
COc1cc(C(=O)NS(=O)(=O)c2ccccc2C)ccc1Cc1cn(C)c2ccc(NC(=O)OC3CCCC3)cc12 — inhibition (Volume-regulated anion channel subunit LRRC8C, part LRRC8A IL1 chimera (LRRC8C, Homo sapiens, UniProt Q8TDW0, L105R); ion current, inhibitor, whole-cell patch clamp; HCT LRRC8-/- cells; 30 µM, +100 mV): 89.6% and 96.1% and 88.2% and 91.7% and 94% and 84.9%
COc1ccc2c(c1)C(=O)N(CCCN1CCN(c3ccccc3OC)CC1)C2 — inhibition (HTR1B; radioligand binding; concentration not given, added: [3H]5-CT): 72.3%
CC[C@@H]1[C@H](F)C(=O)N[C@@H]1COc1nccc2cc(C(N)=O)c(OC)cc12 — inhibition (MAP4K5 (Homo sapiens, UniProt Q9Y4K4); ATP-site probe binding, ActivX profiling, item: KHS1; THP-1 cell lysate; 0.01 mM, Lys1 site): -0.852%
